# Results pooled from the literature.
# Each line is one published result; not all experiments were run side by side. Several values in a cell are separate wells, animals, samples, runs or records. ± gives the spread as reported.
SMILES,assay,test system,conditions,scale,measurement,value
C=CC(=O)Nc1cc(Nc2nccc(-c3cn(C4CC4)c4ccccc34)n2)c(OC)cc1N(C)CCNC,LC-RAM/HRMS,"human male, plasma","oral, 110 mg, 2 h",reference: total radioactivity,share of radioactivity,2.7%
N[C@@H]1CCCC[C@H]1N.O=C1[O][Pt]2([O]C1=O)[O]C(=O)C(=O)[O]2,,PBS,"24 h, pH 6.0, 37 °C",,decomposition,38%
O=c1nc(NO)ccn1[C@@H]1O[C@H](CO)[C@@H](O)[C@H]1O,,"male Wistar rats, plasma","oral, 30 mg/kg",reference: CFA-arthritic over normal rats,CL/F ratio,0.54 fold
CC(C)c1cnc(-c2cc(Cl)ccc2F)cc1Nc1ccncc1C(=O)NC(CO)CO,refers to: Fatigue,solid tumour patients,"oral, dose not given, phase I monotherapy",,treatment-related adverse events,9.5%
N=C(N)NCCC[C@@H]1NC(=O)[C@H](Cc2c[nH]c3ccccc23)NC(=O)[C@@H](CC2CCCCC2)NC(=O)[C@@H]2CCCN2C(=O)[C@@H](NC(=O)CCc2ccccc2)CCCNC1=O,two-compartment model,"C57BL/6J mouse, plasma plasma","oral, 1 mg/kg single dose",,K21,2.09 h⁻¹
Cc1[nH]c(/C=C2\C(=O)Nc3ccc(F)cc32)c(C)c1NC(=O)CCN1CCN(C)CC1,,dog plasma,"1.00 ng/mL nominal, 24 h, 25 °C, processed samples at room temperature",,measured concentration,1 ng/mL
CC[C@H](C)[C@@H]1NC(=O)[C@H](Cc2ccccc2)NC(=O)[C@@H](NC(=O)[C@H](CCCNC(=N)N)NC(=O)[C@H](Cc2ccccc2)NC(=O)[C@H](Cc2ccccc2)NC(=O)[C@H](CCCCN)NC(=O)[C@H](CO)NC(=O)[C@H](CC(C)C)NC(=O)[C@H](CCCNC(=N)N)NC(=O)[C@H](CCSC)NC(=O)[C@H](C)N)CCNC(=O)NCCC[C@@H](C(=O)N[C@@H](CCCNC(=N)N)C(=O)N[C@@H](CCCCN)C(=O)N[C@@H](CCCCN)C(=O)O)NC(=O)[C@H](CC(C)C)NC1=O,circular dichroism,2.5 mM DPC,,,melting temperature,93.7 °C
C[C@H]1CO[C@@H]2Cn3cc(C(=O)NCc4ccc(F)cc4F)c(=O)c(O[C@@H]4O[C@H](C(=O)O)[C@@H](O)[C@H](O)[C@H]4O)c3C(=O)N12,,humans UGT1A1 wild type,"intramuscular, dose not given, 1 weeks post-injection",,participants with detectable plasma drug,100%
O=C([O-])CN1CCN(CC(=O)[O-])CCN(CC(=O)NCC2CCC(C(=O)NC(Cc3ccc4ccccc4c3)C(=O)NCCCCC(NC(=O)NC(CCC(=O)O)C(=O)O)C(=O)O)CC2)CCN(CC(=O)[O-])CC1.[44Sc+3] (stereo not drawn),transmetallation stability,,"4 h, 37 °C, with: Fe3+ 10 mM",,intact complex,96.7 ± 0.5%
CCOc1ccc2c(c1)C(C)=CC(C)(C)N2c1cc(OCC)cc2c1NC(C)(C)C=C2C,LC-MS/MS,"cattle, Holstein, kidney","oral, 50 mg/kg complete feed of ethoxyquin, 42 days, highest value",,residue concentration,10.7 ng/g
C[C@H](NC(=O)[C@H](C)NC(=O)[C@H](C)NC(=O)[C@H](CCCNC(=N)N)NC(=O)[C@H](CCCNC(=N)N)NC(=O)[C@H](C)NC(=O)[C@H](C)NC(=O)[C@H](C)NC(=O)[C@H](C)NC(=O)[C@H](CCCNC(=N)N)NC(=O)[C@H](CCCNC(=N)N)NC(=O)[C@H](C)NC(=O)[C@H](C)NC(=O)[C@H](C)NC(=O)[C@H](C)NC(=O)[C@H](CCCNC(=N)N)NC(=O)[C@H](CCCNC(=N)N)NC(=O)c1ccc2c(c1)C(=O)OC21c2ccc(O)cc2Oc2cc(O)ccc21)C(=O)N[C@@H](C)C(=O)N[C@@H](CCCNC(=N)N)C(=O)N[C@@H](CCCNC(=N)N)C(=O)O,,bovine cartilage explants,"30 µM, 24 h, with: 1 x PBS",,retained fraction,~77%
CCOC(=O)CCC(=O)Oc1ccc(/C=C/C(=O)/C=C(O)/C=C/c2ccc(OC(=O)CCC(=O)OCC)c(OC)c2)cc1OC,,plasma,1.5 µM,reference: human over dog,hydrolysis rate constant ratio,1.6
COC[C@@H](CC(C)C)NC(=O)c1ccc(CO)c(C)c1,LC-MS,"Sprague-Dawley rats, pooled sexes, plasma","oral, 100 mg/kg of parent drug, 1 h",reference: total metabolite peak area,metabolite peak area,54.1% and 54%
O=C(CCc1ccc(CNC(C(=O)OC2CCCC2)C2CCCCC2)cn1)NO (stereo not drawn),,"human, plasma","oral, 5 mg single dose, geometric mean",,AUC(0-t),13.9 ng·h/mL
CC(=O)N([O-])CCCCCNC(=O)CCC(=O)N([O-])CCCCCNC(=O)CCC(=O)N([O-])CCCCCN.[89Zr+4],radio-iTLC,aqueous buffer,"1 h, pH 7.0, 37 °C, EDTA challenge, with: 100-fold excess EDTA",,intact complex,95.9 ± 0.7%
COC(=O)c1ccc(CCc2cc3cc4nc(c(OC)c5[nH]c(cc6nc(cc2[nH]3)CC6(C)C)cc5CCCNC(=O)OC(C)(C)C)C(=O)C4(C)C)cc1,,DMF,room temperature,,Qy emission FWHM,26 nm
C#CCOc1ccc(/C=C2\SC(=O)N(CC(=O)NCc3ccccc3)C2=O)cc1,inverse Kirkwood-Buff integrals,binary solvent mixture,"298.15 K, mole fraction x1 1.00",,"Kirkwood-Buff integral G1,3",-257 cm³/mol
COc1cc(O)c(-c2cc(-c3cc(-c4c(O)cc(OC)c5c4C[C@@H](C)N[C@@H]5C)c4cc(C)cc(OC)c4c3O)c(O)c3c(OC)cc(C)cc23)c2c1[C@@H](C)N[C@H](C)C2,metabolic stability,"male rat, liver microsomes","1 µM, 30 min",,compound remaining,96%
CCCC[C@H](NC(C)=O)C(=O)N[C@H]1CC(=O)NCCCC[C@@H](C(=O)N[C@@H](C(=O)N2CCC[C@@H]2C(N)=O)C(C)C)NC(=O)[C@H](Cc2c[nH]c3ccccc23)NC(=O)[C@H](CCCN=C(N)N)NC(=O)[C@@H](Cc2ccc3ccccc3c2)NC(=O)[C@@H]2CCCN2C1=O,,"Beagle dog, both sexes, plasma","subcutaneous, once daily, 0.75 mg/kg, day 28",,Cmax,2100 ± 500 ng/mL
Cn1c(=O)oc2ccc(-c3ccc(CC(C#N)NC(=O)C4CNCCCO4)c(F)c3)cc21 (stereo not drawn),,"human volunteers, plasma","80 mg single dose, fasted, geometric mean",,AUC(0-t),8270 ng·h/mL
CC(C)(O)c1ncc([S@](N)(=O)=NC(=O)Nc2c3c(cc4c2CCC4)CCC3)s1,,"healthy human volunteers, plasma","oral, 300 mg single dose, fasted, spray-dried dispersion",,dose-normalised Cmax,85.3 ng/mL/mg
CCOC(=O)CN1CCN(CC(=O)OCC)CCN(Cc2cc(-c3nc4ccccc4s3)cc(OC)c2O)CC1,UV-Vis pH titration,,"25 °C, ionic strength 0.1 M NaCl",,pKa3,9.42
COc1cc2c(cc1OC)CN(CCCCn1ccc3cc(OCC[18F])ccc31)C2,,"ICR mice, male, lung","intravenous, 2 min",,uptake,61.2 ± 6.95 %ID/g
COc1ccc(Nc2nc(Nc3ccc(OCCOCC[18F])cc3)ncc2Br)cc1,,"ICR mice, S180 tumour","intravenous, 370 kBq, 15 min",reference: tumour over bone,uptake ratio,1.64
O=C([O-])CN1CCN(CC(=O)[O-])CCN(CC(=O)NCCc2ccc3c(c2)C2C=CCC2C(c2cc4c(cc2Br)OCO4)N3)CCN(CC(=O)[O-])CC1.[111In+3] (stereo not drawn),,mice with Hec50 tumour xenograft,4 h,reference: tumour over muscle,tumour to tissue ratio,6
O=C([O-])CN1CCN(CC(=O)[O-])CCN(C(CCC(=O)NCCCCCN(CCCC[C@H](NC(=O)N[C@@H](CCC(=O)O)C(=O)O)C(=O)O)C(=O)c2ccc(I)cc2)C(=O)O)CCN(CC(=O)[O-])CC1.[68Ga+3] (stereo partly drawn),,healthy volunteers and patients,dose not given,,vital signs and laboratory parameters,no effect
O=[11C](N1CCC(CNS(=O)(=O)c2ccc(Cl)cc2)CC1)n1cncn1,PET,"Sprague-Dawley rat, brain","intravenous, 60 min",,whole brain uptake,~0.4 SUV
C=CC(=O)Nc1cc(Nc2nccc(-c3cn(C4CC4)c4ccccc34)n2)c(OC)cc1NC,"radio-HPLC, co-eluting peaks pooled","human male, urine","oral, 110 mg, 0 to 96 h, sample holds 4.16% dose",reference: sample radioactivity,share of radioactivity,1.7%
CCCC[C@H](NC(=O)[C@H](CC(C)C)N(C)C(=O)CNC(=O)[C@@H](NC(=O)[C@H](Cc1ccccc1)NC(=O)[C@H](CCCCN)NC(=O)[C@@H](N)CC(=O)O)C(C)C)C(N)=O,,anesthetized Gottingen minipig,"subcutaneous, 1 µg/kg",reference: baseline,heart rate,-1.68 ± 2.02%
COc1cc(OC)cc(C2=C3C(C)=C(I)C(/C=C/c4c[nH]c5ccccc45)=[N+]3[B-](F)(F)n3c(/C=C/c4c[nH]c5ccccc45)c(I)c(C)c32)c1,,THF,,,Stokes shift,617 cm⁻¹

# Some of these lines once more:
SMILES,assay,test system,conditions,scale,measurement,value
CCCC[C@H](NC(C)=O)C(=O)N[C@H]1CC(=O)NCCCC[C@@H](C(=O)N[C@@H](C(=O)N2CCC[C@@H]2C(N)=O)C(C)C)NC(=O)[C@H](Cc2c[nH]c3ccccc23)NC(=O)[C@H](CCCN=C(N)N)NC(=O)[C@@H](Cc2ccc3ccccc3c2)NC(=O)[C@@H]2CCCN2C1=O,,"Beagle dog, both sexes, plasma","subcutaneous, once daily, 0.75 mg/kg, day 28",,Cmax,2100 ± 500 ng/mL
O=C([O-])CN1CCN(CC(=O)[O-])CCN(CC(=O)NCCc2ccc3c(c2)C2C=CCC2C(c2cc4c(cc2Br)OCO4)N3)CCN(CC(=O)[O-])CC1.[111In+3] (stereo not drawn),,mice with Hec50 tumour xenograft,4 h,reference: tumour over muscle,tumour to tissue ratio,6
